Assay results from different studies.
Lines come from different studies, so protocols differ. Several values in a cell are separate wells, animals, samples, runs or records. ± marks the error that the study gave.
Cell line: Huh7.5

`N#C/C(=C\c1ccc(O)c(O)c1)C(=O)c1ccc(O)c(O)c1` gave a CC50 of 60 µM (cell growth or viability, ATP luminescence; 72 h).
`CC(=O)O[C@@H]1[C@@H](OC(C)=O)[C@H](Sc2sc(C(=O)c3ccc(Cl)cc3)c(N)c2-c2nc3ccccc3s2)OC[C@H]1OC(C)=O`: “maximum non-toxic concentration” 80 µg/mL (cytotoxicity; 72 h).
The viability of `Cc1ccc2nc(-c3ccc4nc(-c5ccc(NC(=O)c6ccc7ccccc7c6)cc5)sc4c3)sc2c1S(=O)(=O)O` is reported as 87 ± 4% (10 µM).
`Cc1ccc(S(=O)(=O)Nn2c3c(cc(-c4nc5ccccc5s4)c2=O)CCCCCC3)cc1`: “maximum non-toxic concentration” 130 µg/mL (trypan blue; 72 h).
Under cytotoxicity, `Cc1ccc2nc(-c3ccc4nc(-c5ccc6nc(-c7ccc8nc(-c9ccc(N)cc9)sc8c7)sc6c5)sc4c3)sc2c1S(=O)(=O)O` is recorded as “not toxic” (100 µM).
`O=c1c(-c2nc3ccccc3s2)cc2c(n1NS(=O)(=O)c1ccccc1)CCCCCC2`: “maximum non-toxic concentration” 140 µg/mL (trypan blue; 72 h).
`Nc1c(C(=O)c2ccc(Cl)cc2)sc(S)c1-c1nc2ccccc2s1` — result for “maximum non-toxic concentration”: 80 µg/mL and 70 µg/mL (cytotoxicity; 72 h).
`CCOC(=O)c1cc(-c2nc3ccccc3s2)c(=O)n(NS(=O)(=O)c2ccc(Cl)cc2)c1N`: “maximum non-toxic concentration” 130 µg/mL (trypan blue; 72 h).
`CC(=O)OC[C@H]1O[C@@H](Sc2sc(C(=O)c3ccc(Cl)cc3)c(N)c2-c2nc3ccccc3s2)[C@H](OC(C)=O)[C@@H](OC(C)=O)[C@H]1OC(C)=O`: “maximum non-toxic concentration” 90 µg/mL (cytotoxicity; 72 h).
`O=C(Nc1cccc(C(=O)Nc2ccc(S(=O)(=O)O)c3cc(S(=O)(=O)O)cc(S(=O)(=O)O)c23)c1)Nc1cccc(C(=O)Nc2ccc(S(=O)(=O)O)c3cc(S(=O)(=O)O)cc(S(=O)(=O)O)c23)c1` gave a CC50 of > 25 µM (cell growth or viability, ATP luminescence; 72 h).

Some of these lines once more:
`O=c1c(-c2nc3ccccc3s2)cc2c(n1NS(=O)(=O)c1ccccc1)CCCCCC2`: “maximum non-toxic concentration” 140 µg/mL (trypan blue; 72 h).
